Measurements collected from several papers.
Every numbered part comes from another study and shows a few of its results, in no order. Positions count from the first letter of the parent shown.

Study 1
Target: Interferon regulatory factor 3, full length, phosphomimetic (IRF3, Homo sapiens, UniProt Q14653, residues 1-427, S386D/S396D/S398D/S402D/T404D/S405D)
Technique: protein-binding microarray
Form: double-stranded DNA, one strand shown
Matrix: in vitro
Tested at: 2540 nM top
Setting: 60-bp whole probe
Together with: salmon DNA 0.4 mg/ml
Relative to: random background probes
Reading: higher = stronger binding
Quantity: fitted relative affinity
Constant ends, left off below: GCCTAGCAC … GTCTTGATTCGCTTGACGCTGCTG
Residues (chain): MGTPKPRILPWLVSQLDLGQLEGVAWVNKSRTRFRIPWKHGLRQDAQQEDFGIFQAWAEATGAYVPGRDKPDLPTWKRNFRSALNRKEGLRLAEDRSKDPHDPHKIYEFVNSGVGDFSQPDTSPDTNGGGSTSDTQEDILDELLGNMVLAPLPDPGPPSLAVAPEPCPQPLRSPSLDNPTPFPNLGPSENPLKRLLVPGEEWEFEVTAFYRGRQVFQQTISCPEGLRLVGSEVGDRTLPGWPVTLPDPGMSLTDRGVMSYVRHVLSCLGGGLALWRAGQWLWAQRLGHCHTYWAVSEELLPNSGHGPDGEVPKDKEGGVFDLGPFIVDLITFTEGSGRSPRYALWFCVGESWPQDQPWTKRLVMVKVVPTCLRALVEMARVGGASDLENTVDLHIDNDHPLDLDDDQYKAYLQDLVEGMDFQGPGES
GACGATATCAGTCTCGAGAAGTGCTAG: 1.06 z-score
GCCGATATCAGTATCGAGACGTGCTAG: 1.81 z-score
TTAGGTTTCCTACTGCTTTCGTGCTAG: 4.35 z-score
TTAGATTTCTGTTTCGATTAGTGCTAG: 5.48 z-score
TCTGGTTCCCATTCCAGGGTGTGCTAG: 3.72 z-score
TTAGATTCCAGTTTCGATCAGTGCTAG: 4.27 z-score
TTGAACTTCGGCCTCTAGGTGTGCTAG: -1.08 z-score
GACGATCTCAGTCTCGATACGTGCTAG: 1.05 z-score
TTGGGTATCGGTATCGGTTAGTGCTAG: 4.25 z-score
GTAGATTTCGGGTTTCGATTAGTGCTA: 3.51 z-score
TCATAAAATGGACACTGTACTGTGCTA: -0.0241 z-score
TTTGGTTTCGACTATCGGTTAGTGCTA: 2.93 z-score
TCATCTCTGTCCCTGTTACTGTGCTAG: 0.839 z-score
GACGGTCACGGACTGGGGACGTGCTAG: -0.758 z-score

Study 2
Target: Ras GTPase-activating protein-binding protein 1, C-terminal RGG region (G3BP1, Homo sapiens, UniProt Q13283)
Chain of UniProt Q13283 (whole entry, looked up): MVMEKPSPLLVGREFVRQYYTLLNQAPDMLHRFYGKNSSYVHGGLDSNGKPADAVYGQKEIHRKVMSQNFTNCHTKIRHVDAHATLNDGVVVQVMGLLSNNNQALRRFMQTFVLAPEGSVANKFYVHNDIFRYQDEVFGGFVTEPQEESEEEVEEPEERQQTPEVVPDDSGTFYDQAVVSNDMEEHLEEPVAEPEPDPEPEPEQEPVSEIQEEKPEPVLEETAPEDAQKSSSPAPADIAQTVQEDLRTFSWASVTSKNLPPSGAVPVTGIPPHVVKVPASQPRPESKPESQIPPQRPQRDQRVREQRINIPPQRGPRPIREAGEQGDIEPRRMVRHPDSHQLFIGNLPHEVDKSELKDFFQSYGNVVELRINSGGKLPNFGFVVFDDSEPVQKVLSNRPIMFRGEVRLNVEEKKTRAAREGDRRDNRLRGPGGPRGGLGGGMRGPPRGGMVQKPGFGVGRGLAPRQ
Technique: RNA Bind-n-Seq
Form: RNA
Matrix: in vitro
Tested at: 1 µM
Setting: whole 134-nt RNA, ends assumed
Together with: 150 mM KCl
Relative to: input library
Reading: higher = stronger binding
Quantity: log2 enrichment
Constant ends, left off below: GGGAGUUCUACAGUCCGACGAUC … UGGAAUUCUCGGGUGUCAAGG
CUCAAGUCCUGUGCUACACAUCGUAUGUACCGAAUCGGGAGGGAGGGUUUGGGAAAGUAUUAUGUUACGCCGUUCGGAUCUGCACUUCCA: 2.23
ACCAUGCAGGUGGGCAUCUUUGGGAAGUGGGGCAAGGGGGGGAUAGGGAGGGGGGUAACACUUUGGGAACAGAAAGUCCCAGGUCGUUUC: -0.935
UGGUUUGAGUCCAGCCAAUGACACUGGAGCCAAAAAGAAGAAAAAGAAACAAAAAAAGAAGAAAGAAAAAGGCAGUGAGACAGAUUCAGC: -1.17
UCAGUGUCUUACCCUGAAGAGAAAGUUGUAGGUUGGCUGUUGAAAUUCAUUCCUUAGAUAUGAUCAGUUUGAUUGCCCGGCUUUAUUGCC: -1.89
CACAGACAACACGCACCCACACAGACACUGAGGGAAGGGGUUGGGAUGGGGACAGGGUGCACAGCAGGGCGGGGUAGGACCCCAGCCCCU: -0.0308
CCUGUGCUACACAUCGUAUGUACCGAAUCGGGGAAAGGGGUUUUUGGGGUUUUUUUGGGGAAAGUAUUAUGUUACGCCGUUCGGAUCUGC: 0.388
CUGUGCUACACAUCGUAUGUACCGAAUCGGGAAAAAAAGGAAAAAAAGGGAAAAAAAGGGGAAAGUAUUAUGUUACGCCGUUCGGAUCUG: -1.51
UCCUGUGCUACACAUCGUAUGUACCGAAUCGGGGAAAAAGGGGUUUUUUUGGGGUGGGGAAAGUAUUAUGUUACGCCGUUCGGAUCUGCA: 1.29
CCUCAAGUCCUGUGCUACACAUCGUAUGUACCGAAUCGGGCGGGCGGGGCGGAAAGUAUUAUGUUACGCCGUUCGGAUCUGCACUUCCAG: 0.614

Study 3
Target: CCNE1, cyclin fold, Cln2 fusion (human)
Technique: yeast growth competition, sequencing
Matrix: yeast
Setting: weak parent motif
Relative to: not given
Reading: higher = stronger binding
Quantity: normalised enrichment score
Parent: KIF20B docking peptide (human); KRAKRKLYTSEIS
KAAKRKLYTSEIS [R2A]: 0.65
KRAKRKLYTSEAS [I12A]: 0.346
KRAKAKLYTSEIS [R5A]: -0.283
KRAKRKLYASEIS [T9A]: 0.248
KRAKRKLYTSEIA [S13A]: 0.346
KRAKRKLYTAEIS [S10A]: -0.206

Study 4
Target: Histone acetyltransferase KAT6A, both winged helices, GST fusion (KAT6A, Homo sapiens, UniProt Q92794, residues 1-181)
Technique: protein binding microarray
Form: double-stranded DNA, one strand shown
Matrix: in vitro
Tested at: not given
Setting: 8-mer, flanks averaged, mean of 2 arrays, mostly near background
Relative to: not given
Reading: higher = stronger binding
Quantity: E-score
Residues (chain): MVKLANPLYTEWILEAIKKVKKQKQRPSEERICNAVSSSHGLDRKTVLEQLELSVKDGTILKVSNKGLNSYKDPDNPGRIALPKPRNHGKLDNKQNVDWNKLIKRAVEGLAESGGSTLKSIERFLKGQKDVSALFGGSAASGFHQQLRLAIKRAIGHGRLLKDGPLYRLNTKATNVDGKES
CGCTATTC: 0.21
AGTGTCTG: -0.304
ACCGGACA: 0.0503
CCTAGTTA: -0.0197
GAAAAGTC: -0.142
GAGTGATA: 0.0486
CCCTATTC: -0.197
GTTACCGA: 0.133
CTACAGAA: -0.132
CATACATC: -0.103
CAGGAGGG: -0.298
ACCCTCGA: -0.195
ATAAAACG: 0.103
ACCACATA: -0.148
CCATTGAG: 0.0798
GTATTGTA: 0.0703
AAGGCGAT: -0.074

Study 5
Target: ABI1, truncated, D143A, DHFR fusion (Arabidopsis thaliana)
Technique: DHFR PCA, deep sequencing
Matrix: yeast
Setting: methotrexate growth selection, single substitutions
Together with: (+)-ABA 0.39 µM
Relative to: wild-type fitted maximum
Reading: higher = stronger binding
Quantity: relative binding score
Parent: PYL1, truncated, DHFR fusion (Arabidopsis thaliana); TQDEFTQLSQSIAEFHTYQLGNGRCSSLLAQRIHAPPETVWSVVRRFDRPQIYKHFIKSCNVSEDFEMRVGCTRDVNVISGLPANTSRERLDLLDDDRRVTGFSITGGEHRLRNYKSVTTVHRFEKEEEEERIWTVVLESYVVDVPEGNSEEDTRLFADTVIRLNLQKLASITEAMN; partner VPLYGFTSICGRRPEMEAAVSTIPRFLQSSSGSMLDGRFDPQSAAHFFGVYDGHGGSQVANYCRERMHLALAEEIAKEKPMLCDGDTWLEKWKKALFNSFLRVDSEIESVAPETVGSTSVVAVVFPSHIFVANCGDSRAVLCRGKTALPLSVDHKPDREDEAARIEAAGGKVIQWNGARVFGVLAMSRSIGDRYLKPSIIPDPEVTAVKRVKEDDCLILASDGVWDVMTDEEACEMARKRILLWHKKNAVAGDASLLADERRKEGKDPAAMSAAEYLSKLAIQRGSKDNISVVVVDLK
Q19E: 58.3%
D92I: -5.53%
F66N: 4.35%
A13N: 41.6%
T101G: -1.8%
L93Y: 27.9%
Q10V: 17%
F15G: 0.63%
K58S: 20.9%
S117N: -1.94%
Q2S: 43.4%
T1Q: 36%
E139N: -7.54%

Study 6
Target: Sal-like protein 4, full length isoform B (SALL4, Homo sapiens, UniProt Q9UJQ4-2, residues 1-616)
Technique: universal PBM
Form: double-stranded DNA, one strand shown
Matrix: in vitro
Tested at: not given
Setting: 8-mer, flanks averaged, mean of replicates
Reading: higher = stronger binding
Quantity: E-score
Residues (chain): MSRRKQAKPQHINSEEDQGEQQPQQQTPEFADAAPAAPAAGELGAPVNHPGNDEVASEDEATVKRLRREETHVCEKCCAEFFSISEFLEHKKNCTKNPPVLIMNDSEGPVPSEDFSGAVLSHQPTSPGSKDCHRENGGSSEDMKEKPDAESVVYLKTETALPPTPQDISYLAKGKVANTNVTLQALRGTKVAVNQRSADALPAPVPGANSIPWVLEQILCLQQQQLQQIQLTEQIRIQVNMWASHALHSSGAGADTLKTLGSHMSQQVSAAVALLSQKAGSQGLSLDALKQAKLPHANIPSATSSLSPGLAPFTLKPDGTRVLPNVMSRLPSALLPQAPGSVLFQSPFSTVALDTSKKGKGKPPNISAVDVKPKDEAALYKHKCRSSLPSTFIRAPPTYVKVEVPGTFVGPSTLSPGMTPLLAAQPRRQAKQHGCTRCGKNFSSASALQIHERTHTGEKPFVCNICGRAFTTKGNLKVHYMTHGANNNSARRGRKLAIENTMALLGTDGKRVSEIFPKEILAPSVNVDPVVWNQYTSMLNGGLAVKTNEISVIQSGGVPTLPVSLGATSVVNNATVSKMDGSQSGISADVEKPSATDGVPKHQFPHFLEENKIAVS
AAGATCTC: 0.0425
CAACGAAA: 0.201
AAGCGTAA: 0.156
ACTCCAAA: -0.00231
GGGGTTCA: -0.228
ATCCTAAC: 0.084
ATTCCAAG: 0.0996
ATTTGGCG: 0.112
GCCCTCGA: -0.118
GCTTCGAC: -0.181
GATTGTTA: 0.207
ATTAACCA: 0.105
AGTGGGGA: -0.185
CATCCGTA: 0.0367
GACCCGCC: -0.272
ACAGAGCA: 0.0262
GGCCGTTA: -0.0127

For quick reference, copied from above (study 3):
KAAKRKLYTSEIS [R2A]: 0.65
KRAKRKLYTSEAS [I12A]: 0.346
KRAKAKLYTSEIS [R5A]: -0.283
KRAKRKLYASEIS [T9A]: 0.248
KRAKRKLYTSEIA [S13A]: 0.346
KRAKRKLYTAEIS [S10A]: -0.206
